# Published values pooled from the literature.
# Parts stem from different laboratories: compare values within a part only.

# Sample 1
# Target: RNA binding protein fox-1 homolog 2, RRM domain, GST-SBP tag (RBFOX2, Homo sapiens, UniProt O43251-10, residues 100-194)
# Method: RNA Bind-n-Seq
# Molecule type: RNA
# Sample: in vitro
# Tested at: 365 nM
# Setting: natural RNA segment, single round, ends assumed
# Relative to: no-protein control
# Direction: higher = stronger binding
# Construct (chain): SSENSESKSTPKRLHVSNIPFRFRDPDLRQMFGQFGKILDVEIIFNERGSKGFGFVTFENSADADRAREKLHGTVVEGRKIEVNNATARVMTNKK
Sequence,RBNS enrichment (R)
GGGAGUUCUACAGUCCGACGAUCACAGUUUGUCUCAGAGGAAUCCAAGGAUUCUUUUUCAGACAAGUUGUAGGUCCCGCAUACAUGUCCACCAGGACAUUAGACAGUCGUAAAGAUGCAGAACGAACAGUUUGUGGAAUUCUCGGGUGCCAA,0.321
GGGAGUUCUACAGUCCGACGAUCCUGUCCUUAUCUCCUGUCAUAGCUGUCCAACUGCAGGGUAAGGAGCAAGUUGUGAGGAAAGGUCCUCAGAACAUGGGAUUCCACAUGAGGAAUCCUUAGGCUGCCAGGAAUGGAAUUCUCGGGUGCCAA,0.418
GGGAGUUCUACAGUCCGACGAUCUGCCUGCCCCCUCCCAGCAGCCAGCCCUGCCAAAGUUGCAUUAUCUUUGGCCAAGGCUGGGCCUGACGGUUAUGAUUUCAGCCCUGGGCCUGCAGGAGAGGCUGAGACCAUGGAAUUCUCGGGUGCCAA,6.19
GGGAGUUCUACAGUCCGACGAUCCUUCUUUUCAGUAAAACUUUAGGAGAUGUUAUGGGGAAAGGGAGGGAACAGAAAUCCUUGAACUUUUUAUUUGGCGUGUGCCAUGUUAUGAUCAUGUACCUUUUCAAUAAUGGAAUUCUCGGGUGCCAA,0.846
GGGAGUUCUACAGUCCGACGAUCCACCAGCGUCUGUCUUAAAGGUAGGGCCAAUUUCAUGGAGCAUUUUUCUGUGUGUGUCCUUGUUGCUUUUGCCAGAAAAAGUGGAUUUGACAUGCGUGCCCCGAUGCCACUGGAAUUCUCGGGUGCCAA,0.725
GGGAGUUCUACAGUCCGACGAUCUGCUUUUGCAGUUAUUGGGGGGGGUCACAUAUUUCUGGUGUCUUUGACCUGGAAAAAUAAAGUAAUUAAAAAGAAAGAGCUUGCUUCUAAGUUGCUAGUAUCAUUGGGUGUGGAAUUCUCGGGUGCCAA,0.878
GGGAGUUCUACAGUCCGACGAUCAGCUCAGCUCGAGUCUUCAGGGCUGGGCUCCUAGGCUGCCCAUCCUACUUCUACCCUCACUGGCCUCCAGUGGGAUUCACUCCUGCCCUGCCCCCACCUUCCCAGUCCCAUGGAAUUCUCGGGUGCCAA,0.359
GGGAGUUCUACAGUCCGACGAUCGGGAGCGCUUCCUGCAGCCGCUGAUGGCCCUGCUGUACCCUGACUGUGGCGGGGGCCGGCUCGACAGCCACCGGGCCUUUGUGGUCAAAUACGCACCGGGCCAGGACCUGUGGAAUUCUCGGGUGCCAA,0.309

# Sample 2
# Target: Prothrombin, mature alpha-thrombin (F2, Homo sapiens, UniProt P00734)
# Method: aptamer microarray, sandwich
# Molecule type: DNA with 2'F-ANA
# Sample: in vitro
# Tested at: 200 nM
# Setting: whole 15-mer aptamer, many near background
# Added: Cy3 exosite-II aptamer, 400 nM
# Direction: higher = stronger binding
# Sequence: GGTTGGTGTGGTTGG
Modification,mean fluorescence intensity
2'F-ANA at 1 2 4 5 6 8 10 11 12 13 15,51.7 a.u.
2'F-ANA at 1 3 6 7 9 10 12 14 15,112 a.u.
2'F-ANA at 4 5 8 12,171 a.u.
2'F-ANA at 2 3 7 8 9 10 11 12 13,389 a.u.
2'F-ANA at 4 6 7 8 11 13 14,88.4 a.u.
2'F-ANA at 1 2 4 5 7 9 10 12 14,46 a.u.
2'F-ANA at 1 2 4 5 6 9 10 14,56.4 a.u.
2'F-ANA at 4 9 10 11 14,59.4 a.u.
2'F-ANA at 1 3 4 6 9 10 12 13 14,72.5 a.u.
2'F-ANA at 1 3 4 7 9 10 11 12 13 15,112 a.u.
2'F-ANA at 1 4 5 11 12 14,43.2 a.u.
2'F-ANA at 1 2 3 9 10 12 13 14 15,70.4 a.u.
2'F-ANA at 3 4 5 6 7 10 11 12 15,106 a.u.
2'F-ANA at 5 14,43.5 a.u.
2'F-ANA at 1 6 8 10 11 12 15,63.5 a.u.
2'F-ANA at 5 8 9 10 11 12,50.1 a.u.
2'F-ANA at 1 2 3 4 6 8 9 10 11 12 15,69.8 a.u.
2'F-ANA at 2 3 4 7 9 10 11 12 13 15,225 a.u.
2'F-ANA at 1 5 6 7 10 13 14 15,44.9 a.u.
2'F-ANA at 2 3 4 8 11 12 14,329 a.u.
2'F-ANA at 3 5 6 7 9 10 11 12 14,49.3 a.u.

# Sample 3
# Target: Centromere-binding protein 1, full length, His-tagged (CBF1, Saccharomyces cerevisiae, UniProt P17106, residues 1-351)
# Sequence of UniProt P17106 (whole entry, looked up): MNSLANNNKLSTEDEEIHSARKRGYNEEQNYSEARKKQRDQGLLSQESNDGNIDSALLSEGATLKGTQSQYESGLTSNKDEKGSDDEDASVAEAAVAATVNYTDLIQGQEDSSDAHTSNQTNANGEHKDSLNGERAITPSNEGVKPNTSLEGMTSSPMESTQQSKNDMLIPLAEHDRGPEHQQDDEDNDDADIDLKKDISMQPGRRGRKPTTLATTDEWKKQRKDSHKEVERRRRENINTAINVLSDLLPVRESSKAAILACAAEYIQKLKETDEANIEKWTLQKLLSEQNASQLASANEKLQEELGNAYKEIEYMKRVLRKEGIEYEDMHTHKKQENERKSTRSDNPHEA
# Method: competition protein-binding microarray
# Molecule type: double-stranded DNA, one strand shown
# Sample: in vitro
# Tested at: 2 µM
# Setting: whole 60-bp probe, lowest competitor level
# Added: Pho4 competitor, 0.05 µM
# Direction: higher = stronger binding
Sequence,fluorescence intensity
GCTGGAATGCCGCGACAGATGTAACAAGAATGTGTTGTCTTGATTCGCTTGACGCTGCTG,67.2 a.u.
AACTACTGCCTTTATCATGTGACGGAACTACGCTTGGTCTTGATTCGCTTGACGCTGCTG,1000 a.u.
CGTCCTAGCGATTGAAGCGTGGGTGCCATGAGGAAGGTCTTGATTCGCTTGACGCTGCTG,82.7 a.u.
CTTTCCCGATCTTGTCACCCAACTTTAGCACATTTGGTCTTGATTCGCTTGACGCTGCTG,66.3 a.u.
GTCTTGTCTCATTGAAACGTGGGTGTCCCCACTTCAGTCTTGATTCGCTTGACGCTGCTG,102 a.u.
GTCTTGTCTCATTGTCTGGTGGGTGTCCCCACTTCAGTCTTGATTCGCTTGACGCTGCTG,72.1 a.u.
AACTCTCCACCCTTGCACATGTCTTCAGATTCGTCCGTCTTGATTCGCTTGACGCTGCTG,118 a.u.
CGGCAAATCCTCTTCCACATGTGTGTCTTTGAATCAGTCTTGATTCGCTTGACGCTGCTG,90.9 a.u.
CATACCCAACCTTGTCACCGCACTTAAGATATTTGTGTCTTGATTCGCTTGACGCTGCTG,69.4 a.u.
CATACCCAACCTTTTCACGTGTGCTAAGATATTTGTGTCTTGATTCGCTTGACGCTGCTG,831 a.u.
CTAACGAAGGTTTGATAAGTGGGTGACAAGCCAAGTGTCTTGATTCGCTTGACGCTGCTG,64.3 a.u.
ACCAGCACCACCAACCACCTGAACCCCAACCATATTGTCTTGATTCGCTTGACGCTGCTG,78.9 a.u.
TAAAAGAGGTTCTCACTCGTGAATACACCATCAACTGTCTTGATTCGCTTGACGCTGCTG,80.6 a.u.
TATTAACGCTGCTGTCATGCCATCTCAATGGGAATTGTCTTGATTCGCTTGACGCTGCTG,77.8 a.u.
AAATTACTAAGTTGATAGGTGGGTGACGCCGTATGAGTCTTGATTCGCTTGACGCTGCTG,79.7 a.u.
CGGGGTTAAGTTTGAAGCGTGGGTGGCTTGCAGCAGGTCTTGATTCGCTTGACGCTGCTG,61.6 a.u.
AGCACTGCCTCCTGTCACCTGTTTCGGCATGGCACAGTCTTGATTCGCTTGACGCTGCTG,124 a.u.
AATCTTGAATGGAGTGACCTGAGACAAGGAGAGGCAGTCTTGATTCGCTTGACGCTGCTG,77.9 a.u.
AATAAAGAGAAAAACCATGTGCGGTAGCAGCCTGCCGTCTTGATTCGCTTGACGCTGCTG,71 a.u.

# Sample 4
# Target: Histone acetyltransferase KAT6A, winged helix 1, GST fusion (KAT6A, Homo sapiens, UniProt Q92794, residues 1-85)
# Method: protein binding microarray
# Molecule type: double-stranded DNA, one strand shown
# Sample: in vitro
# Tested at: not given
# Setting: 8-mer, flanks averaged, mean of 2 arrays, mostly near background
# Relative to: not given
# Direction: higher = stronger binding
# Target sequence (chain): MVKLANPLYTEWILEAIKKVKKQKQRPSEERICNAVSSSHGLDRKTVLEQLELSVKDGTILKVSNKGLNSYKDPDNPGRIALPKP
Sequence,E-score
CACCACCA,-0.279
AACACTGC,0.0755
TCCAAGCA,-0.163
ACATATGT,-0.0383
ATATCCAA,-0.179
ACCCCCGC,0.271
CGGTATAA,0.0736
GCGCTTGA,0.264
ACTCATCG,0.0518
AACGACCG,-0.0605
AATGTATC,-0.181
ATGAATCA,-0.114
CGGCTCCC,0.303
ACCGTCAT,0.205
CATTACGC,0.185
ATGTCTAG,0.0116
CTTTAGAC,-0.25
GGTTTGTA,-0.184
ACTTCCGA,0.0134
TACTTCAA,-0.235
AGAGGACA,-0.242

# Some of these lines once more (sample 3):
Sequence,fluorescence intensity
TATTAACGCTGCTGTCATGCCATCTCAATGGGAATTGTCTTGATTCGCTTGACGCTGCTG,77.8 a.u.
GCTGGAATGCCGCGACAGATGTAACAAGAATGTGTTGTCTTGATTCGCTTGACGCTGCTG,67.2 a.u.
CGGCAAATCCTCTTCCACATGTGTGTCTTTGAATCAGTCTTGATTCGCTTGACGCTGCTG,90.9 a.u.
AACTACTGCCTTTATCATGTGACGGAACTACGCTTGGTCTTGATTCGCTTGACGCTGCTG,1000 a.u.
AGCACTGCCTCCTGTCACCTGTTTCGGCATGGCACAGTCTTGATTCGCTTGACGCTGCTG,124 a.u.
CATACCCAACCTTGTCACCGCACTTAAGATATTTGTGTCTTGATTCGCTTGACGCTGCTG,69.4 a.u.
AAATTACTAAGTTGATAGGTGGGTGACGCCGTATGAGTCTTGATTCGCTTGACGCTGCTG,79.7 a.u.
GTCTTGTCTCATTGTCTGGTGGGTGTCCCCACTTCAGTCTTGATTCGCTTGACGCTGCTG,72.1 a.u.
AACTCTCCACCCTTGCACATGTCTTCAGATTCGTCCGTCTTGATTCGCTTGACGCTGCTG,118 a.u.
GTCTTGTCTCATTGAAACGTGGGTGTCCCCACTTCAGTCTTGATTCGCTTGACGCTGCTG,102 a.u.
CGTCCTAGCGATTGAAGCGTGGGTGCCATGAGGAAGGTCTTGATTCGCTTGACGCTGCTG,82.7 a.u.
